Measurements gathered from unrelated publications.
Every numbered part comes from another study and shows a few of its results, in no order.

Study 1
Target: Interferon regulatory factor 5, full length, phosphomimetic (IRF5, Homo sapiens, UniProt Q13568-2, residues 1-514, K96S/S451D/S453D/S456D/S462D)
Technique: protein-binding microarray
Form: double-stranded DNA, one strand shown
Medium: in vitro
Concentration: 250 nM
Notes: 60-bp whole probe
Added: salmon DNA 0.4 mg/ml
Reference: random background probes
Direction: higher = stronger binding
Endpoint: log fluorescence
GCCTAGCACGACGGTATCGATCTCGGGACGTGCTAGGTCTTGATTCGCTTGACGCTGCTG: 3.93 z-score
GCCTAGCACGACGATTTCGGGACTGGAGGCGTGCTAGTCTTGATTCGCTTGACGCTGCTG: 1.61 z-score
GCCTAGCACTCAAAGATTCCTCTCACACTGTGCTAGGTCTTGATTCGCTTGACGCTGCTG: 0.0416 z-score
GCCTAGCACGGCTTGACGTCATCCCCTTGGTGCTAGGTCTTGATTCGCTTGACGCTGCTG: -0.456 z-score

Study 2
Target: Prothrombin, mature alpha-thrombin (F2, Homo sapiens, UniProt P00734)
Technique: aptamer microarray, sandwich
Form: DNA with 2'F-ANA
Medium: in vitro
Concentration: 200 nM
Notes: whole 15-mer aptamer, many near background
Added: Cy3 exosite-II aptamer, 400 nM
Direction: higher = stronger binding
Endpoint: mean fluorescence intensity
Oligonucleotide: GGTTGGTGTGGTTGG
2'F-ANA at 3 4 7 8 14 15: 382 a.u.
2'F-ANA at 1 2 6 8 9 11 14: 59.4 a.u.
2'F-ANA at 3 5 7 8 9 10 12 14 15: 53.7 a.u.
2'F-ANA at 5 8 9 10 11 12 13 14 15: 55.3 a.u.
2'F-ANA at 2 3 7 9 10 11 12 13 15: 364 a.u.
2'F-ANA at 3 7 10 13: 607 a.u.
2'F-ANA at 2 3 4 7 8 10 11 13: 247 a.u.

Study 3
Target: Histone acetyltransferase KAT6A, winged helix 2, GST fusion (KAT6A, Homo sapiens, UniProt Q92794, residues 85-181)
Technique: protein binding microarray
Form: double-stranded DNA, one strand shown
Medium: in vitro
Concentration: not given
Notes: 8-mer, flanks averaged, mean of 2 arrays, mostly near background
Reference: not given
Direction: higher = stronger binding
Endpoint: E-score
Construct (chain): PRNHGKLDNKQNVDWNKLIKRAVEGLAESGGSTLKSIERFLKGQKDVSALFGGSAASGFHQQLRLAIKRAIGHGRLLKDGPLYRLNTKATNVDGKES
AGCGTCTC: -0.0766
AGTCGTCC: -0.176
AGATCCGG: 0.0691
ATTCTACG: -0.0143
CACGGTCC: -0.153
GGGTACAC: -0.103
AGGGACTA: -0.0926

Mixed results
PhoQ, residues 284 288 289 292 302 303 TAVSDG — fold induction (PhoP, residues 12 14 15 18 19 STWGI (Escherichia coli, UniProt P23836); Sort-seq, measured: YFP reporter; E. coli; PhoQ-PhoP variant library, added: 10 µM Mg2+; reference: high Mg2+ state, higher = stronger signaling): 2.14

Repeated from above (study 3):
GGGTACAC: -0.103
AGATCCGG: 0.0691
